Published values from different studies.
Each line is one published result; not all experiments were run side by side. “And” joins repeats or separate records; there may be more than shown. ± marks the error that the study gave.

With `CCN(CC)Cc1ccc2cc(COC(=O)Nc3ccc(C(=O)NO)cc3)ccc2c1` the viability was 62.2% (OCI-Ly1; 0.1 µM, 120 h).
For `COc1cc(Nc2ncc3c(n2)-c2ccc(Cl)cc2C(c2c(F)cccc2OC)=NC3)ccc1C(=O)O`, “patients with sore throat” read 13% (cancer patients; oral, dose not given, grade 1 any attribution, with: pembrolizumab).
For `CNC(=O)c1ccc(-c2cnc3ncc(Cc4ccc5ncccc5c4)n3n2)cc1F`, “patients with adverse event” read 0% (refers to: Dizziness, all grades; gastric cancer patients; oral, 600 mg twice daily, expansion cohort, any causality).
Under “drug-related TEAE incidence”, `CCCCOc1nc(N)c2c(n1)N(Cc1cccc(CN3CCCC3)c1)CC(=O)N2` is recorded as 0% (refers to: Photophobia; human; oral, 2 mg).
`CCOc1c([C@H](C)n2nc(C)c3c(N)ncnc32)cc(Cl)c(F)c1[C@@H]1CNC(=O)C1` — result for “AUC(0-last) geometric mean”: 6.63 µM·h (patients, monotherapy; oral, 10 mg once daily, cycle 1 day 15).
The viability of `CC(C)N(CCCNC(=O)Nc1ccc(C(C)(C)C)cc1)C[C@H]1O[C@@H](n2cc(Br)c3c(N)ncnc32)[C@H](O)[C@@H]1O` is reported as 118% (OCI-Ly1; 0.5 µM, 120 h).
The plasma concentration of `COc1cc(/C=C/C(=O)OC2CC(O)(C(=O)O)CC(O)C2O)ccc1O` (centres unmarked) is reported as 14.4 nM (human plasma; median).
With `O=C(N[C@H](CO)[C@H](O)c1ccc([N+](=O)[O-])cc1)C(Cl)Cl` the amount permeated was 2.56 nmol (starch gel membrane permeability; Gram-negative envelope surrogate; 200 µM, 30 min, pH 7.4).
`CCO[C@H]1CCN(Cc2c(OC)cc(C)c3[nH]ccc23)[C@H](c2ccc(C(=O)O)cc2)C1` has an AUC(0-7 h) of 1.66 µM·h (C57BL/6 mouse; intravenous, 1 mg/kg, dose-normalised).
`O=c1c(O)c(-c2ccc(O)cc2)oc2cc(O)cc(O)c12` has a plasma concentration of 102000 nM (human plasma; mean, both sexes).
With `Nc1ncnc2c1ncn2[C@H]1C[C@@H]2OP(=O)(O)OC[C@H]3O[C@@H](n4cnc5c(N)ncnc54)C[C@@H]3OP(=O)(O)OC[C@H]2O1` the haemoglobin was 149 ± 7.5 g/L (non-tumor-bearing mice, blood; intravenous, 1 mg/kg, toxicity study).
`COc1ccc2c3c([nH]c2c1)[C@H](CC(C)C)N1C(=O)[C@H](CC(=O)NC(C)C)NC(=O)[C@@H]1C3` has a serum concentration of 348 nM and 1760 nM and 72 nM and 369 nM (wild-type mouse, male, serum; oral, 100 mg/kg, 8 h).
Under “elimination rate constant”, `CN[C@H](CC(C)C)C(=O)N[C@H]1C(=O)N[C@@H](CC(N)=O)C(=O)N[C@H]2C(=O)N[C@H]3C(=O)N[C@H](C(=O)N[C@H](C(=O)O)c4cc(O)cc(O)c4-c4cc3ccc4O)[C@H](O)c3ccc(c(Cl)c3)Oc3cc2cc(c3O[C@@H]2O[C@H](CO)[C@@H](O)[C@H](O)[C@H]2O[C@H]2C[C@](C)(N)[C@H](O)[C@H](C)O2)Oc2ccc(cc2Cl)[C@H]1O` is recorded as 0.11 h⁻¹ (C57BL/6N mouse H3, faeces; po, 0.5 mL, 20 mg/mL solution).
The MRT(0-inf) of `CN(C)CCCNC(=O)/C(=C/CCCCC(=O)NO)COc1cccc2ccccc12` is reported as 7.12 h (human; iv, 187.5 mg/m2, day 1, single dose, mean).
`O=C(O)CCC(=O)O.[2H]C([2H])([2H])Oc1cc(C)c2[nH]ccc2c1CN1CC[C@@H](C2CC2)C[C@H]1c1ccc(C(=O)O)cc1` — result for “subjects with neutropenia”: 0% (multiple ascending dose; healthy Chinese subjects; 125 mg twice daily).
Under “change from baseline”, `CCCCOC(=O)N1CCN(C(=O)[C@H](CP(=O)(O)O)NC(=O)c2cc(N3CC[C@H](OC)C3)nc(-c3ccccc3)n2)CC1` is recorded as -0.5 ± 7.7 U/L (refers to: alkaline phosphatase; human, serum; 8 mg, 24 h post-dose).
Under “participants with grade ≥ 3 TEAE”, `CCn1c(=O)c(-c2cc(NC(=O)Nc3ccccc3)c(F)cc2Br)cc2cnc(NC)cc21` is recorded as 12.5% (refers to: lipase increased; healthy human, matched to mild hepatic impairment; oral, 50 mg single dose).
Under “minimum plasma concentration”, `Cc1c2oc3c(C)ccc(C(=O)N[C@@H]4C(=O)N[C@H](C(C)C)C(=O)N5CCC[C@H]5C(=O)N(C)CC(=O)N(C)[C@@H](C(C)C)C(=O)O[C@@H]4C)c3nc-2c(C(=O)N[C@@H]2C(=O)N[C@H](C(C)C)C(=O)N3CCC[C@H]3C(=O)N(C)CC(=O)N(C)[C@@H](C(C)C)C(=O)O[C@@H]2C)c(N)c1=O` is recorded as 1.2 µg/L (LC-MS; children with cancer, plasma; dose not given, 6 h).
The AUC extrapolated of `CCc1cc(C(=O)NC)c2nccc(N3CCc4c(cc(Cn5ccnc5)cc4-c4cn(C)nc4C(F)(F)F)C3=O)c2c1` is reported as 0.2% (Sprague Dawley rats, male, plasma; oral, 100 mg/kg twice daily, day 1).
`Cc1nc2ccc(OCc3ccc(C(F)(F)F)cc3)cc2[nH]1` gave a tissue/plasma ratio of 13.2 ± 1.4 (male Balb/c mice, kidney; oral, 10 mg/kg, 4 h; baseline: tissue over plasma).
`O=C(O)CCc1nc(-c2ccccc2)c(-c2ccccc2)o1` gave an apoptosis of 0.76 ± 0.12 (COS-7; 100 µM, 24 h, 0.1% DMSO, unit not given; baseline: control).
For `O=C(COc1ccc(Cl)cc1)NC12CC(c3nnc([C@H]4C[C@@H](OC(F)(F)F)C4)o3)(C1)C2`, “postural dizziness participants” read 16.7% (human both sexes; oral, 400 mg single dose).
`O=C(Nc1nc2cccc(-c3ccc(CN4CCS(=O)(=O)CC4)cc3)n2n1)C1CC1`: “treatment-emergent adverse events” 25% (refers to: nausea; human rheumatoid arthritis patients; oral, 200 mg once daily, 4 weeks, regardless of relatedness).

Some of these lines once more:
The viability of `CC(C)N(CCCNC(=O)Nc1ccc(C(C)(C)C)cc1)C[C@H]1O[C@@H](n2cc(Br)c3c(N)ncnc32)[C@H](O)[C@@H]1O` is reported as 118% (OCI-Ly1; 0.5 µM, 120 h).
`CCO[C@H]1CCN(Cc2c(OC)cc(C)c3[nH]ccc23)[C@H](c2ccc(C(=O)O)cc2)C1` has an AUC(0-7 h) of 1.66 µM·h (C57BL/6 mouse; intravenous, 1 mg/kg, dose-normalised).
